Measured values collected from several papers.
Numbered parts are unrelated; each lists some results of a single study. “And” joins repeats or separate records; there may be more than shown.
UniProt Q15349, sequence (whole entry, looked up): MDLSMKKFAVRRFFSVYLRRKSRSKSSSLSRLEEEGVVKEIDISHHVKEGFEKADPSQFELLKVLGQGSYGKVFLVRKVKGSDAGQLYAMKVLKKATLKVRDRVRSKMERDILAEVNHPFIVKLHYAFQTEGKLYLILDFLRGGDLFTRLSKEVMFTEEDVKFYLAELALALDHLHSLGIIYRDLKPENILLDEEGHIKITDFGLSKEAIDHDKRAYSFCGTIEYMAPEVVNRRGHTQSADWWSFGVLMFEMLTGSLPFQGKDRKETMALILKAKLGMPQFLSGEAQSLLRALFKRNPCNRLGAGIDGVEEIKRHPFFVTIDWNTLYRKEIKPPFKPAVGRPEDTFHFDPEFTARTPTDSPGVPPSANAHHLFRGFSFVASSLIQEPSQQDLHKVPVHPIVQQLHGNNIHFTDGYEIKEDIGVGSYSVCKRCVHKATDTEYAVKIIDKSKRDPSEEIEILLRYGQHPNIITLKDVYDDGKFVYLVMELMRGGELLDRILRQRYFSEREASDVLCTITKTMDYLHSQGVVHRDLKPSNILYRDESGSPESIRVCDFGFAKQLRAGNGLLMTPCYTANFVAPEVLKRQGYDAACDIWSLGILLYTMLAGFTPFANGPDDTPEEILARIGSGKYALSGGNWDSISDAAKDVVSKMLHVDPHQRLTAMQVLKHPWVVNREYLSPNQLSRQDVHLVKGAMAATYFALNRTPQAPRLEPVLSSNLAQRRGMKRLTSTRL
UniProt Q5XXA6, sequence (whole entry, unmodified, looked up): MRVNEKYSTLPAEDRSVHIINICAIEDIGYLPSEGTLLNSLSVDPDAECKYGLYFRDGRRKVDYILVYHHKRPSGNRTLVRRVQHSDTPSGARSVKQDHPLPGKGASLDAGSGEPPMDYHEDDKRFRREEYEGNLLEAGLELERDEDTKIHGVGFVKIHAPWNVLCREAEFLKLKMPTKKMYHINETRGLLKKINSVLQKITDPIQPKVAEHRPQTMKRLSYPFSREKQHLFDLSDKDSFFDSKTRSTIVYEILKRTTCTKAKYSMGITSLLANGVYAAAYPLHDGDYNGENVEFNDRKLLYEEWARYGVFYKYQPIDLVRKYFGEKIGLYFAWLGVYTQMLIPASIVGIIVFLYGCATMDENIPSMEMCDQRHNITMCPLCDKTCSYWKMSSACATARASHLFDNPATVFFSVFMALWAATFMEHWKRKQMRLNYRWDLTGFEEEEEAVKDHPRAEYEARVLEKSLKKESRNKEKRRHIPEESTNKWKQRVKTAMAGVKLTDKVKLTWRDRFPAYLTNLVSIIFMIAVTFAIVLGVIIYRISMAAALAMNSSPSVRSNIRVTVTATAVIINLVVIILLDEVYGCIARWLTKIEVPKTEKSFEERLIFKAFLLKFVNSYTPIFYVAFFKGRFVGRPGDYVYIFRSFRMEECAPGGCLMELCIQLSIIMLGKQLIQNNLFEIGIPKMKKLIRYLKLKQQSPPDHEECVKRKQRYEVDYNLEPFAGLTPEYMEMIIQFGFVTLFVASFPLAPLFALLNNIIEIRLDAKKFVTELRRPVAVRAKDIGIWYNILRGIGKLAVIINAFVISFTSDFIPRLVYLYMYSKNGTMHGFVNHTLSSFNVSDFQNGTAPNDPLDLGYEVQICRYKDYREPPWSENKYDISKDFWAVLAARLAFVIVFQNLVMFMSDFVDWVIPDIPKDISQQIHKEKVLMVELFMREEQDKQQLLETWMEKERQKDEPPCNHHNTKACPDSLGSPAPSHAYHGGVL

Set 1
Cell line: mouse MPNST tumor cells
Technique: high-content immunofluorescence imaging
Measured: nuclear SOX9
Tested at: 10 µM
Time: 12 h
Notes: mean of 2 replicates
Baseline: DMSO control
Direction: higher = more nuclear SOX9
`O=C(NNc1ccccc1)c1ccncc1`: “nuclear SOX9 intensity” 104 % of DMSO.
`O=C(Nc1cc(-c2ccccc2)nn1-c1ccccc1F)c1ccc([N+](=O)[O-])cc1` — result for “nuclear SOX9 intensity”: 95.1 % of DMSO.
`CCc1cncnc1N1CCN(Cc2nc3ccc(C(F)(F)F)cc3[nH]2)CC1` — result for “nuclear SOX9 intensity”: 84.4 % of DMSO.
For `O=C(NC(=O)c1c(F)cccc1Cl)NC1c2ccccc2-c2ccccc21`, “nuclear SOX9 intensity” read 111 % of DMSO.
`CN(C)CCCn1cc(C2=C(c3c[nH]c4ccccc34)C(=O)NC2=O)c2ccccc21` — result for “nuclear SOX9 intensity”: 153 % of DMSO.
`CC1(C)CCC(C)(C)c2cc(C#Cc3ccc(C(=O)O)cc3)ccc21` — result for “nuclear SOX9 intensity”: 118 % of DMSO.
For `CC(C[N+](C)(C)C)OC(N)=O` (stereo not drawn), “nuclear SOX9 intensity” read 89.8 % of DMSO.
`CCCCNc1cc(C(=O)O)cc(S(N)(=O)=O)c1Oc1ccccc1` — result for “nuclear SOX9 intensity”: 99.5 % of DMSO and 110 % of DMSO and 108 % of DMSO.

Set 2
Organism: Sarcocystis neurona
Observed: parasite growth
Tested at: 10 µM
Time: 96 h
Notes: secondary screen
With `CN(C)c1nc(N(C)C)nc(N(C)C)n1` the inhibition was -13.8%.
With `c1ccc2c(CC3=NCCN3)cccc2c1` the inhibition was -1.1%.
For `COc1ccccc1N1CCN(CC(O)COc2cccc3ccccc23)CC1` (stereo not drawn), the inhibition was -36.6%.
The inhibition of `CCN1CCN(c2cc3c(cc2F)c(=O)c(C(=O)O)cn3C2CC2)CC1` is reported as -18.4%.
With `CC(C(=O)O)c1ccc(-c2ccccc2)c(F)c1` (stereo not drawn) the inhibition was -18.5%.
`O=C1C(CC[S+]([O-])c2ccccc2)C(=O)N(c2ccccc2)N1c1ccccc1` (stereo not drawn) gave an inhibition of -19.9%.
`COc1c(N2CCNC(C)C2)c(F)cc2c(=O)c(C(=O)O)cn(C3CC3)c12` (stereo not drawn) has an inhibition of 11.6%.
For `COC(=O)C1=C(C)NC(C)=C(C(=O)OC)C1c1ccccc1[N+](=O)[O-]`, the inhibition was -20.3%.

Single results of other studies
Action: inhibitor
`C=CCc1ccc(O)c(-c2cc(CC=C)ccc2O)c1`: “potency fold increase” 1.86 (Anoctamin-1 (ANO1, Homo sapiens, UniProt Q5XXA6, del476-501); chloride current, whole-cell voltage clamp; wild type at -100 mV, added: 3 µM honokiol; baseline: with over without honokiol).
`COc1ccc2c(c[n+](C)c3c4cc5c(cc4ccc23)OCO5)c1OC` has a remaining activity of 86.1% (Ribosomal protein S6 kinase alpha-2 (RPS6KA2, Homo sapiens, UniProt Q15349); enzyme activity; 0.5 µM; baseline: control).

Excerpt of the above (single results of other studies):
`C=CCc1ccc(O)c(-c2cc(CC=C)ccc2O)c1`: “potency fold increase” 1.86 (Anoctamin-1 (ANO1, Homo sapiens, UniProt Q5XXA6, del476-501); chloride current, whole-cell voltage clamp; wild type at -100 mV, added: 3 µM honokiol; baseline: with over without honokiol).
